Measured values pooled from the literature.
Each numbered part is a random draw from the data of one study; scales do not carry over between parts.
Sequence of UniProt O15146 (whole entry, looked up): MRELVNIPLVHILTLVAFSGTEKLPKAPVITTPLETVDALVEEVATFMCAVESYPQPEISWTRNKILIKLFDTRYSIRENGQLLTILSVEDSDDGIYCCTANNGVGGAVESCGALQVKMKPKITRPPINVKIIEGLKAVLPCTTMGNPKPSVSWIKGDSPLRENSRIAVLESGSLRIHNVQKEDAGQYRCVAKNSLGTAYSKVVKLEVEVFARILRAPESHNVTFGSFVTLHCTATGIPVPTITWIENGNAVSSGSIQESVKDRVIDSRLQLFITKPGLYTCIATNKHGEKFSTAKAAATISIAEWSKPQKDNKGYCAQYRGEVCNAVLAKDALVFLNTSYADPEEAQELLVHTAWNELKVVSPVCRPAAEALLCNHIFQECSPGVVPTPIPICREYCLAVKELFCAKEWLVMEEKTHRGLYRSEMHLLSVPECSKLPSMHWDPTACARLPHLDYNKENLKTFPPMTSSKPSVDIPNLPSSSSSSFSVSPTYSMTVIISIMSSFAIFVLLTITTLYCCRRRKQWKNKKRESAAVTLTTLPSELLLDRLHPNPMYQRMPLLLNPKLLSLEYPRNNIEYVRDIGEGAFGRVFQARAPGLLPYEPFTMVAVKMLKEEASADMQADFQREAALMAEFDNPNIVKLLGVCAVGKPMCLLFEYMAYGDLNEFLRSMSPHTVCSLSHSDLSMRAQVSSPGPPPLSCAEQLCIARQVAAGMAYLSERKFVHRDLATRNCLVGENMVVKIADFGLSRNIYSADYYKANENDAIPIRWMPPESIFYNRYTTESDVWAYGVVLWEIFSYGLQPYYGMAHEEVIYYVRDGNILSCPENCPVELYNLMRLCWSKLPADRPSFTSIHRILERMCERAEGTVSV
Sequence of UniProt P51813 (whole entry, looked up): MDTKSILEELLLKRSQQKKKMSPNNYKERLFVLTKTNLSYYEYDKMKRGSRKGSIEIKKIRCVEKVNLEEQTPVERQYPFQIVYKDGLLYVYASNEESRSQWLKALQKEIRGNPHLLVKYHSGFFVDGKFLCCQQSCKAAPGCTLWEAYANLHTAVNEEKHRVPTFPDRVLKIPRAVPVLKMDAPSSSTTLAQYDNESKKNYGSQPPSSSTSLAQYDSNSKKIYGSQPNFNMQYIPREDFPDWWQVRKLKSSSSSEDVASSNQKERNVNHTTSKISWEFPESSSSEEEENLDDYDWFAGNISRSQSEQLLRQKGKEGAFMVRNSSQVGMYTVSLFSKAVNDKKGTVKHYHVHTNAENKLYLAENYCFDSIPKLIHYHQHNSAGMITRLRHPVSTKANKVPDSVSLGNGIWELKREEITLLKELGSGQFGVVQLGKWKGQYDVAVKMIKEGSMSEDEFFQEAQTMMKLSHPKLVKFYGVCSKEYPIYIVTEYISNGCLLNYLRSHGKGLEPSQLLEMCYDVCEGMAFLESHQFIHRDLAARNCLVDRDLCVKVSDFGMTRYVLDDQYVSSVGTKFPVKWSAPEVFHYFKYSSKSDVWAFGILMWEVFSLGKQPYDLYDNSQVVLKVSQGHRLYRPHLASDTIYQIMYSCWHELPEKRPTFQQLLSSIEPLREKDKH

Study 1
Target: PABPC1L2, full length, GST fusion (mouse, UniProt A0ABA7IW68)
Technique: RNAcompete
Molecule type: RNA
Medium: in vitro
Concentration: 20 nM
Notes: 7-mer, probes averaged, single round
Relative to: mean of 7-mers
Direction: higher = stronger binding
Quantity: 7-mer Z-score
Residues (chain): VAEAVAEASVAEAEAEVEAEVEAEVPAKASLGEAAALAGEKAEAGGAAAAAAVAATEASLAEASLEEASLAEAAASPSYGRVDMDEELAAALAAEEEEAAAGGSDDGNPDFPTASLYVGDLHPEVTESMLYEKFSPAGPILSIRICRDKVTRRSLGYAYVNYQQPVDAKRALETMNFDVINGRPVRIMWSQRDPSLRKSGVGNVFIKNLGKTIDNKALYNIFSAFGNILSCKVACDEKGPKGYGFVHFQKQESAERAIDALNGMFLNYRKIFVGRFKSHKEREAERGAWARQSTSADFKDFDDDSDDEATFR
UAGUGAA: 0.119
AAACCGA: 0.448
UUCGACC: -0.374
AGCGAAA: 0.9
GUUAGAU: -0.168
CACGUCA: -0.226
UAUGGAC: 0.0334
GACGAAU: -0.0772

Study 2
Target: Sal-like protein 4, full length isoform A (SALL4, Homo sapiens, UniProt Q9UJQ4, residues 1-1053)
Sequence of UniProt Q9UJQ4 (whole entry, looked up): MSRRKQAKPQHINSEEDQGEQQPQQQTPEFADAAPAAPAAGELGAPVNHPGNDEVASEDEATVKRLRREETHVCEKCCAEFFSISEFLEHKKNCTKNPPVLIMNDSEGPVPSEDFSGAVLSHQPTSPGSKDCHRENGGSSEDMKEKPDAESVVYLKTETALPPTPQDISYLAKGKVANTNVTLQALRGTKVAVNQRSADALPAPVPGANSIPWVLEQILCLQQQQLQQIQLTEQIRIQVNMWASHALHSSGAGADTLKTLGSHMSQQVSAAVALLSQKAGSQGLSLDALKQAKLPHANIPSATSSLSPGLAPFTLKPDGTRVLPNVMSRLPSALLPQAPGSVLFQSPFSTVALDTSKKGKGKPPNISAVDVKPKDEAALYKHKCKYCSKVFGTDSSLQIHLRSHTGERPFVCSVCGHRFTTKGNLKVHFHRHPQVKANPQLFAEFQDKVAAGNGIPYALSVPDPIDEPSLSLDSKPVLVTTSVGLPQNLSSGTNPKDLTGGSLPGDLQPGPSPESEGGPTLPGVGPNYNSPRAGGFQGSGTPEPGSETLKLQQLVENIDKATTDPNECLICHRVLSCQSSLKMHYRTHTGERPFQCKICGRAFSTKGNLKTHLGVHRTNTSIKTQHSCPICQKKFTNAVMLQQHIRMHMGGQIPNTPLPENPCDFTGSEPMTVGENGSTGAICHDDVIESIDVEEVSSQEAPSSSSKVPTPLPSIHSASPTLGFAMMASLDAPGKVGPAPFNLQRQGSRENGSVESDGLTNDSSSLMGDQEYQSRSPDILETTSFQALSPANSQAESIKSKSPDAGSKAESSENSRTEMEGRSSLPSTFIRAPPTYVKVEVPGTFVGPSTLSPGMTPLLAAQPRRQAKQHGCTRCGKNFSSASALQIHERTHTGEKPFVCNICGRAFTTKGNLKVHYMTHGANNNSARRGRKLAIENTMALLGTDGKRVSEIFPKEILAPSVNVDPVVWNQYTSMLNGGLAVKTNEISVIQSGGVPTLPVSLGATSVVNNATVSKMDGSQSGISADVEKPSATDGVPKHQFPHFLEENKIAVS
Technique: universal PBM
Molecule type: double-stranded DNA, one strand shown
Medium: in vitro
Concentration: 600 nM
Notes: 8-mer, flanks averaged, mean of replicates
Direction: higher = stronger binding
Quantity: E-score
ATTTGGGC: -0.0642
ACGAGACG: -0.203
ATCCGCTG: -0.281
ACTATTGA: 0.264
CAATTGAG: -0.0446
ACAGCACA: 0.0559
AAACAAGG: -0.058
ACCGCAAT: -0.0771

Other studies, line by line
O=c1c2ccccc2[nH]c(=S)n1CCN1CCC(=C(c2ccc(F)cc2)c2ccc(F)cc2)CC1 — remaining activity (BMX (Homo sapiens, UniProt P51813); enzyme activity, inhibitor; 0.5 µM): 85.5%
CN([C@@H]1CCc2c(CC(=O)O)c3ccccc3n2C1)S(=O)(=O)c1ccc(F)cc1 — remaining binding (MUSK (Homo sapiens, UniProt O15146); cell-free assay, competition with immobilised ligand; 1 µM): 97%

Excerpt of the above (study 1):
AGCGAAA: 0.9
